Experimental data gathered from unrelated publications.
Each numbered part is a random draw from the data of one study; scales do not carry over between parts.

Set 1
Target: Serine/threonine-protein kinase 16 (STK16, Homo sapiens, UniProt O75716)
Chain of UniProt O75716 (whole entry, looked up): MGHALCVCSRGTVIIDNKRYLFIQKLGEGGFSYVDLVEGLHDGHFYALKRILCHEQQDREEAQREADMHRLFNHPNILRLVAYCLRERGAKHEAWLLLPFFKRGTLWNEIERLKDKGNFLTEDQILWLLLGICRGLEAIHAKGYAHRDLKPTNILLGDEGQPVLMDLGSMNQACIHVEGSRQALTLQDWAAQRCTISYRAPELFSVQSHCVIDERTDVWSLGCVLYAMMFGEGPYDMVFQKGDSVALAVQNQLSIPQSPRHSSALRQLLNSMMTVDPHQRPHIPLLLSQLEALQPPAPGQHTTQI
Effect on: enzyme activity
Mode: inhibitor
Tested at: 0.5 µM
Reference: control
`Cc1ccc(Nc2nccc(N(C)c3ccc4c(C)n(C)nc4c3)n2)cc1S(N)(=O)=O` gave a remaining activity of 43.8%.
`Nc1ncnc2n[nH]c(Nc3ccc(F)cc3)c12` has a remaining activity of 108%.
`COc1ccc(OC)c2c(=S)c3ccccc3[nH]c12` gave a remaining activity of 90%.
`O=C(CCCc1ccc(-c2ccccc2F)cc1)Nc1ccc(O)cc1` gave a remaining activity of 111%.
The remaining activity of `CO[C@H]1C[C@@H]2CC[C@@H](C)[C@@](O)(O2)C(=O)C(=O)N2CCCC[C@H]2C(=O)O[C@H]([C@H](C)C[C@@H]2CC[C@@H](O)[C@H](OC)C2)CC(=O)[C@H](C)/C=C(\C)[C@@H](O)[C@@H](OC)C(=O)[C@H](C)C[C@H](C)/C=C/C=C/C=C/1C` is reported as 112%.
`COc1cc2ncnc(Nc3ccc(F)c(Cl)c3)c2cc1OCCCN1CCOCC1` gave a remaining activity of 96.8%.
`OCC(O)CCON=C1C(c2c(O)[nH]c3ccccc23)=Nc2ccccc21` (stereo not drawn) has a remaining activity of 12.7%.
For `O=S(=O)(c1cccc2cnccc12)N1CCCNCC1`, the remaining activity was 91.7%.
With `Cn1sc(=O)n(Cc2ccccc2)c1=O` the remaining activity was 105%.
`Cc1ccc(NC(=O)c2ccc(CN3CCN(C)CC3)cc2)cc1Nc1nc(-c2cccnc2)cs1` gave a remaining activity of 103%.
The remaining activity of `CCOC(=O)c1c(C)[nH]c(/C=C2\C(=O)Nc3ccccc32)c1C` is reported as 88.3%.
`NCCNc1ncc(C(N)=O)c(Nc2cccc(C(F)(F)F)c2)n1` gave a remaining activity of 95.9%.
`Cn1c2ccccc2c2c3c(c4c5ccccc5n(CCC#N)c4c21)CNC3=O` has a remaining activity of 81.1%.
The remaining activity of `CC(C)[C@H](CO)Nc1nc(Nc2cc(N)cc(Cl)c2)c2ncn(C(C)C)c2n1` is reported as 74%.
The remaining activity of `COc1cc2nccc(Oc3ccc(NC(=S)NC(=O)c4ccccc4C)cc3)c2cc1OC` is reported as 101%.
`O=C(O)c1ccc2c3c1cccc3c(=O)n1c3ccccc3nc21` gave a remaining activity of 106%.
`Oc1ccc(-c2nc(-c3ccncc3)c(-c3ccc(F)cc3)[nH]2)cc1` gave a remaining activity of 111%.
The remaining activity of `O=C1NC(=O)C(c2cn(CCCO)c3ncccc23)=C1c1cnccn1` is reported as 90.3%.
`N#CC(C#N)=C(N)/C(C#N)=C/c1ccc(O)cc1` has a remaining activity of 109%.
The remaining activity of `O=C(Nc1cccc(Nc2cc(Nc3cccc(C(F)(F)F)c3)ncn2)c1)C1CC1` is reported as 107%.

Set 2
Organism: Sarcocystis neurona
Effect on: parasite growth
Tested at: 10 µM
Time: 96 h
Setting: first screen
Reference: untreated
For `NS(=O)(=O)c1cc2c(cc1Cl)N=CNS2(=O)=O`, “log2 fold change” read -0.0357.
For `[H]/N=C(/NCCCCC)N/N=C/c1c[nH]c2ccc(OC)cc12`, “log2 fold change” read -5.98.
`NC(=O)c1cccnc1` — result for “log2 fold change”: -0.45.
For `C#C[C@]1(O)CC[C@H]2[C@@H]3CCc4cc(OC)ccc4[C@H]3CC[C@@]21C`, “log2 fold change” read 0.0531.
For `CCCN1C[C@H](CSC)C[C@@H]2c3cccc4[nH]cc(c34)C[C@H]21`, “log2 fold change” read 0.0568.
For `CN(CCCN1c2ccccc2CCc2ccccc21)CC(=O)c1ccc(Cl)cc1`, “log2 fold change” read -0.0753.
`O=C(O)c1cc(-c2ccc(F)cc2F)ccc1O` — result for “log2 fold change”: 0.09.
`COc1cccc2c1C(=O)c1c(O)c3c(c(O)c1C2=O)C[C@@](O)(C(=O)CO)C[C@@H]3O[C@H]1C[C@H](N)[C@H](O)[C@H](C)O1`: “log2 fold change” -1.58.

Set 3
Host: mouse
Matrix: microsomes or S9
Tested at: 2 µM
Time: 0.5 h
`CCN(CC)CCCNc1sc(S(C)(=O)=O)nc1S(=O)(=O)c1ccc(C)cc1` has a remaining compound of 1.45%.
With `O=c1cc(-c2ccc(F)cc2)ncn1C1CCCC1` the remaining compound was 0.304%.
For `O=C(NC1CCCC1)C1(Cc2ccccn2)CCOCC1`, the remaining compound was 78.6%.
`CN(C)CC(C)(C)CNc1ncnc2c1cnn2-c1ccccc1` has a remaining compound of 14.5%.
`CCOC(C)c1nc(Cn2nc3ccccn3c2=O)cs1` (stereo not drawn) has a remaining compound of 58.5%.

Set 4
Target: 5-hydroxytryptamine receptor 5A (HTR5A, Homo sapiens, UniProt P47898)
Chain of UniProt P47898 (whole entry, looked up): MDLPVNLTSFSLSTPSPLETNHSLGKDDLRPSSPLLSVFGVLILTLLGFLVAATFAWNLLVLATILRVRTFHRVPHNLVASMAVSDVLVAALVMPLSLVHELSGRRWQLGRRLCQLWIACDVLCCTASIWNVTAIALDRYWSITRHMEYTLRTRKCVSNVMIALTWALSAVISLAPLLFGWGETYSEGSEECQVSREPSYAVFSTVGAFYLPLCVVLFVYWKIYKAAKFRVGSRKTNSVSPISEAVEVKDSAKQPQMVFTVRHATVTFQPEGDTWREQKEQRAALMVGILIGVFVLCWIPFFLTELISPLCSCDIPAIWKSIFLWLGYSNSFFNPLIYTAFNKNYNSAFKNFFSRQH
Effect on: cell-free assay
Tested at: 10 µM
For `CC(=O)c1c(NS(C)(=O)=O)c2cc(-c3ccc(Cl)cc3)c(-c3ccc(Cl)cc3Cl)nc2n(C)c1=O`, the inhibition was 39.9%.
The inhibition of `COc1ccc2cc(OCC3(C(=O)O)CN(C(=O)c4ccc(F)cc4)C3)ccc2c1` is reported as -8.97%.
`Cc1nc(N2CC[C@@H](O)C2)ncc1-c1cc(C(F)(F)F)cc2[nH]ncc12` gave an inhibition of -2.09%.
`CC(=O)Nc1c(C(C)=O)c(=O)n(C)c2nc(-c3ccc(Cl)cc3Cl)c(-c3ccc(Cl)cc3)cc12` has an inhibition of 14.3%.
`CC1CCN(c2ccnc(NCc3cn(C)cn3)n2)CC1` gave an inhibition of 24%.
`COc1ccc2c(c1)O[C@@H](c1ccc(OC)c(OC)c1)C[C@H]2NC(=O)C1(c2ccc3c(c2)OC(F)(F)O3)CC1` has an inhibition of -17.4%.
With `CCCCN(CCCC)C(=O)CN1C[C@@H](c2cc(OC)c3c(c2)OCO3)[C@H](C(=O)O)[C@H]1CC(C)(C)CCC` the inhibition was 43.5%.
The inhibition of `Cc1ccccc1Oc1cc(-n2c(=O)cc(C(F)(F)F)[nH]c2=O)c2ccccc2c1Cl` is reported as 5.61%.
With `CC(=O)Nc1ncc(CN2CCC[C@H](Cc3cc(C)nc(C)c3)C2)s1` the inhibition was 18.7%.
